Measurements pooled from the literature.
Every numbered part comes from another study and shows a few of its results, in no order. Substitutions count along the parent as printed.

Series 1
Target: CCNE1, cyclin fold, Cln2 fusion (human)
Method: yeast growth competition, sequencing
Sample: yeast
Setting: weak parent motif
Reference: not given
Reading: higher = stronger binding
Endpoint: normalised enrichment score
Parent: MICAL3 docking peptide (human); LQLRRQLSFSEDS
Variant = LQLRRQLSFQEDS [S10Q]; value = 0.565
Variant = LQLRRVLSFSEDS [Q6V]; value = 1.59
Variant = LQLRRQLSFEEDS [S10E]; value = 1.16
Variant = LQLRPQLSFSEDS [R5P]; value = 0.159
Variant = LQLWRQLSFSEDS [R4W]; value = 0.475
Variant = LDLRRQLSFSEDS [Q2D]; value = 0.557
Variant = LQLRGQLSFSEDS [R5G]; value = 0.0879
Variant = LQLTRQLSFSEDS [R4T]; value = -0.0455
Variant = LQLRRQLSFSCDS [E11C]; value = 1.34
Variant = LQLRRQLKFSEDS [S8K]; value = 0.654
Variant = LNLRRQLSFSEDS [Q2N]; value = 1.33
Variant = LQLRRQLSFSELS [D12L]; value = 1.34
Variant = LQDRRQLSFSEDS [L3D]; value = 0.0851
Variant = LQLRRQLSMSEDS [F9M]; value = 0.0114
Variant = LQLQRQLSFSEDS [R4Q]; value = -0.17
Variant = LQLRRQLSCSEDS [F9C]; value = 0.239
Variant = LQLRRQLSFSDDS [E11D]; value = 1.5
Variant = LQLRRQLWFSEDS [S8W]; value = 0.633

Series 2
Target: Interferon regulatory factor 7, full length, phosphomimetic (IRF7, Homo sapiens, UniProt Q92985, residues 1-503, S101K/S471D/S472D/S475D/S476D/S477D/S483D/S484D/S487D)
Sequence of UniProt Q92985 (whole entry, unmodified, looked up): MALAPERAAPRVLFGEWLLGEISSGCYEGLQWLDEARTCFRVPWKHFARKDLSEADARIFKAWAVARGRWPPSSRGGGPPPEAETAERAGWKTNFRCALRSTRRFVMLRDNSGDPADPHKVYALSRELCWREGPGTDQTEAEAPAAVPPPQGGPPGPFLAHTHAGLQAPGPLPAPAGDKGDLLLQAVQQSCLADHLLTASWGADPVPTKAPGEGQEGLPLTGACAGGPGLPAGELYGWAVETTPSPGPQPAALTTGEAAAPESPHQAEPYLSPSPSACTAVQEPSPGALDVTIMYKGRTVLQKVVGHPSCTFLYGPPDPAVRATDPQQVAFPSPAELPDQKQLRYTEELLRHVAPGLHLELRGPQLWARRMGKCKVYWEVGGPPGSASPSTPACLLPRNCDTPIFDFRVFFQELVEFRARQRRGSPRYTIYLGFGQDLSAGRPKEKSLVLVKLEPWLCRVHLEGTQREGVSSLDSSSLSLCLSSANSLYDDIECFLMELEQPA
Method: protein-binding microarray
Molecule type: double-stranded DNA, one strand shown
Sample: in vitro
Concentration: 250 nM
Setting: 60-bp whole probe
Together with: salmon DNA 0.4 mg/ml
Reference: random background probes
Reading: higher = stronger binding
Endpoint: log fluorescence
All sequences stand within: GCCTAGCAC … GTCTTGATTCGCTTGACGCTGCTG
Strand = TTAGAACTGGGGTTTCGATGAGTGCTA; value = 0.803 z-score
Strand = GACGAACTCAGACTGGAGACGTGCTAG; value = -0.216 z-score
Strand = TCATACTTCCCACTGGTACTGTGCTAG; value = 0.659 z-score
Strand = GAGTGCTGGGATTACAGGCAGTGCTAG; value = -0.852 z-score
Strand = GACGATATCAGTTCCGAGACGTGCTAG; value = 0.211 z-score
Strand = CTCTTCTTTTTTTTCTTTAAGTGCTAG; value = 1.89 z-score
Strand = GCGCCTTGATGTCTGGGTCTGTGCTAG; value = -0.355 z-score
Strand = GACGATATCAGACTGGAGAGGTGCTAG; value = -0.283 z-score
Strand = GACGCTTTCCTTATCCTGACGTGCTAG; value = 1.52 z-score
Strand = GACGGTGTCGGACTGGGGACGTGCTAG; value = -0.566 z-score
Strand = TTAGATATCCGGTTTCGATTAGTGCTA; value = 8.47 z-score
Strand = TTAGGTTCCGACTATCGGTTAGTGCTA; value = 1.13 z-score
Strand = TCCCTTTCAGTTTTCCTATGGTGCTAG; value = 1.89 z-score
Strand = TTATGTTTCGACACTGGGTTAGTGCTA; value = 1.26 z-score
Strand = TTAGATTTGGGGTTTCGATTAGTGCTA; value = 5.62 z-score
Strand = TGGTATTTTTTTCTAATTGAGTGCTAG; value = 1.1 z-score
Strand = AGGCCCTTTGCTTTCCTGATGTGCTAG; value = 0.415 z-score
Strand = TTAGATTTCCGTTTCGATTAGTGCTAG; value = 5.61 z-score
Strand = GACGGTTTCGGTTACGGGACGTGCTAG; value = 9.59 z-score
Strand = GACTGTTCCGGTTTCGGGACGTGCTAG; value = 5.31 z-score
Strand = TTGCCTCACCTCACCTGTCCGTGCTAG; value = 1.07 z-score
Strand = GACGGACTGGACTTTCGGGGCGTGCTA; value = -0.716 z-score
Strand = TCAACTTTCTTTTGCTTACTGTGCTAG; value = 0.818 z-score
Strand = TTAGGACTCGGTCTCGGTTAGTGCTAG; value = 2.37 z-score
Strand = TTTTCTCTGGTTCTTGCTTGGTGCTAG; value = 2.36 z-score

Series 3
Target: Sal-like protein 4, full length isoform A (SALL4, Homo sapiens, UniProt Q9UJQ4, residues 1-1053)
Sequence of UniProt Q9UJQ4 (whole entry, looked up): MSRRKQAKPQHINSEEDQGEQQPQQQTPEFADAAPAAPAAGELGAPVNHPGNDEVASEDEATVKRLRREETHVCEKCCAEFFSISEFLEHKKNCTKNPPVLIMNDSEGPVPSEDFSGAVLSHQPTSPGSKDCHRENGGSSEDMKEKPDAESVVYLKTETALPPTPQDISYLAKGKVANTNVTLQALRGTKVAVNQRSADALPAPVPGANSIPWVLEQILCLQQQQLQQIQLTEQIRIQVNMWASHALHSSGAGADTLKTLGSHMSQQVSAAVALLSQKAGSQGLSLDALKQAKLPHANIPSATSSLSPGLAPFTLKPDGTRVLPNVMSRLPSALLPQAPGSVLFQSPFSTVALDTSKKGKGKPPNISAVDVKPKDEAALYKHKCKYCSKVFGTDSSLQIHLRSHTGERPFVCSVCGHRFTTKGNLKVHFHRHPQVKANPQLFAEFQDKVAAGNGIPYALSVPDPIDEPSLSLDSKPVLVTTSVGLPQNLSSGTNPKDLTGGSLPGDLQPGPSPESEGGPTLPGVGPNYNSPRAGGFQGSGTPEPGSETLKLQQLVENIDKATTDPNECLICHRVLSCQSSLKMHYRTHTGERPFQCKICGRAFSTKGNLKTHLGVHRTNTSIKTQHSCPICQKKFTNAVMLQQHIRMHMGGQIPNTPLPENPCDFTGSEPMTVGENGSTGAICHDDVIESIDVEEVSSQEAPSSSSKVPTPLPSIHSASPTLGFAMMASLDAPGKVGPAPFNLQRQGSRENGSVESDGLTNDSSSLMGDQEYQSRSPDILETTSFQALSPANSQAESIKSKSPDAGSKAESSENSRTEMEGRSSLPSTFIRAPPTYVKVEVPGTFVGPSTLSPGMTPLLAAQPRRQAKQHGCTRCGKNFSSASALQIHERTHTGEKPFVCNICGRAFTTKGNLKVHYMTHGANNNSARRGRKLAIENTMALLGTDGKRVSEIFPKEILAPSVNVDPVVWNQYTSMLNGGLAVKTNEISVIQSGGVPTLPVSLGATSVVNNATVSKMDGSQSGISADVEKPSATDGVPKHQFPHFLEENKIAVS
Method: universal PBM
Molecule type: double-stranded DNA, one strand shown
Sample: in vitro
Concentration: 600 nM
Setting: 8-mer, flanks averaged, mean of replicates
Reading: higher = stronger binding
Endpoint: E-score
Strand = GTACTAAA; value = 0.255
Strand = ACCAATAA; value = 0.23
Strand = AACACACG; value = 0.0152
Strand = GAGCAGGA; value = -0.0316
Strand = CAAGCGGA; value = -0.199
Strand = AATTATCG; value = 0.37
Strand = CGCCTAAC; value = -0.106
Strand = CCGTCGTA; value = -0.0474
Strand = ACTTCTAG; value = -0.138
Strand = CCAAGACG; value = -0.121
Strand = AAAAAGGA; value = 0.00852
Strand = GTACCCAC; value = -0.113
Strand = GAGTGACC; value = -0.251
Strand = AAAAACAG; value = 0.169
Strand = CCTTTGTA; value = 0.0596
Strand = AGAAATAT; value = 0.402
Strand = CGAATGCA; value = 0.115
Strand = ACATTATG; value = 0.277
Strand = ACCCCCCC; value = -0.414
Strand = CGAATCGC; value = -0.24
Strand = CAGCTCGA; value = -0.278
Strand = ACGACCTA; value = -0.0138
Strand = ACCGTCCT; value = 0.0321
Strand = CCCTGAAG; value = -0.285
Strand = CGAGGTCA; value = -0.196

Series 4
Target: ABI1, truncated, D143A, DHFR fusion (Arabidopsis thaliana)
Method: DHFR PCA, deep sequencing
Sample: yeast
Setting: methotrexate growth selection, single substitutions
Together with: (+)-ABA 0.032 µM
Reference: wild-type fitted maximum
Reading: higher = stronger binding
Endpoint: relative binding score
Parent: PYL1, truncated, DHFR fusion (Arabidopsis thaliana); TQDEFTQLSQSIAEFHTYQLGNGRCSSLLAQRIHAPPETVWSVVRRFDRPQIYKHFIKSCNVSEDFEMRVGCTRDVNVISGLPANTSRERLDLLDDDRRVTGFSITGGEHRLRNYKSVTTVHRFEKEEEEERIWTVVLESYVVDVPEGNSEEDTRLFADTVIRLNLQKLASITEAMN
Variant = E125G; value = 36.8%
Variant = R98V; value = 2.58%
Variant = Y141W; value = -5.5%
Variant = G21K; value = 21.7%
Variant = R32V; value = 42.5%
Variant = T73N; value = -0.514%
Variant = E139G; value = 0.0895%
Variant = I105K; value = 1.1%
Variant = Q51Y; value = -12%
Variant = T106L; value = 58.8%
Variant = E14P; value = -3.88%

Series 5
Target: RNA binding protein fox-1 homolog 2, RRM domain, GST-SBP tag (RBFOX2, Homo sapiens, UniProt O43251-10, residues 100-194)
Method: RNA Bind-n-Seq
Molecule type: RNA
Sample: in vitro
Concentration: 365 nM
Setting: natural RNA segment, single round, ends assumed
Reference: no-protein control
Reading: higher = stronger binding
Endpoint: RBNS enrichment (R)
All sequences stand within: GGGAGUUCUACAGUCCGACGAUC … UGGAAUUCUCGGGUGCCAA
Target sequence (chain): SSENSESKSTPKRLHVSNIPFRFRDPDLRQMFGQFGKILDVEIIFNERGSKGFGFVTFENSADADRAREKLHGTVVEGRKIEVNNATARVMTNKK
Strand = UUUUGGUGAUUUCAAUUGACUUUGUUUCUUUUAGGUACUGUUUUUAUUGUUUUACUUAGAAUAUUAGGAUUUUUUUUCACUAAUUUUUCUGCCAGUGAAGGAAAAUGGUC; value = 0.626
Strand = UUGUUUGCUUCCCAAAGAUGUAUGUUUUGGAAAAAAAUUGCCUGUAGUCUGGUUGUGAAGAACACUGAGUCAGUUGAUGGUGUGUCUUGUCCUCCAGACCAGGCAGCAAC; value = 3.4
Strand = AAUCAAUUUAAUGUUUAAUGCAAAUCCAUUACAUGGUGCUAUUACAGGCUGACAAAAUGAUUCACACGAAUGUGACAACUCGGGCUCAGUUCACUCUGCUUCCCAACAGU; value = 0.286
Strand = CCCCUCCCAGAUGUUGGACCAACACCCCUCCCUGCCACCAGGCACUGCCUGGAGGGCAGGGAGUGGGAGCCAAUGAACAGGCAUGCAAGUGAGAGCUUCCUGAGCUUUCU; value = 0.805
Strand = CAUUCUUCAUCUAUUUUAGUUAGCACUUUGUAUCGUUAUAUACAGUUUACAAUACAUGUAUAACUUGUAGCUAUAAACAUUUUGUGCCAUUAAAGCUCUCACAAAACUUU; value = 0.286
Strand = AGAAACUUAAGUAAAUAUGGCUUACACCCUAACACUGGGGUGGUUUUCUUUUCUAAUGUAGCUUUCCCUGUUGAGGCUAUUGUUUCUUCUUAAUUUAUAUUAUAUUUUAA; value = 0.544
Strand = CACUGAUGACUGCGGCUGUCUCGACAGUCAUCUUCACAUCUGCUCCCCUCCACAGUCACUAGAGGGCUCUCUAAUGCUUUCUAAAGGAGCCACCACCUGCUCCGUGGCCA; value = 0.499
Strand = UUAGAAAACAUUCAGCCAUCCUAGAAACUAGCAAUAUUUAUUUUUGCCUCUUUCGUUUUACCUUCAUUUUUAGAUGAGGUAAAUGUUUUGUCUUUUACUUAAGGGUACUA; value = 0.294
Strand = GUGUGCCUCAAAAUUCCGGGAAUGGGCACACAAUUUUUCAGUCCCGUGAUCAGAUCCUGAAUCCCAACCCCCAAGACCUGAGGCCUCUGUCAUCUCCCCAUCCCCAGGCU; value = 0.552
Strand = GGGCACCAGGAGACAGGGUCCAGGAAUCCAGGUAUGCCUGUACUUGCUUGAGCAACGACUGAGGGCUGCCAGCUUUUGCUGACAAGGUAGGAUGGGACCCCCAAUAAGUG; value = 0.46
Strand = GUGGAGAGAAGGCAACCCCAGAUCCCCUGAGCUAACCCGGAGGAAAGGCAGUCCUGGACAGAAGACUGUCAGCAGAAGGAAAGUACUGGACUACCCGUGGGUAAGUCCUG; value = 0.365
Strand = UUAAGGAACAGCCAUAACCCUCCGAAUGAUUGCAUUAAUUUCUGACCGCCCUCAGCCCGUUGGAAGCUUGGUUUAGAGGACUUGUUGGGCUCAUUUUGGUUUUAUUGAAA; value = 1.12

Excerpt of the above (series 4):
Variant = R98V; value = 2.58%
Variant = Y141W; value = -5.5%
Variant = G21K; value = 21.7%
Variant = R32V; value = 42.5%
Variant = T73N; value = -0.514%
Variant = E139G; value = 0.0895%
Variant = I105K; value = 1.1%
Variant = Q51Y; value = -12%
Variant = T106L; value = 58.8%
